{"data": "Published values of several laboratories", "note": "Each numbered part is a random draw from the data of one study; scales do not carry over between parts."}
{"data": "Study 1", "Molecule": "deucravacitinib", "technique": "multiple ascending dose", "host": "healthy human", "route": "oral"}
{"dose": "6 mg twice daily", "subjects with oropharyngeal pain": "0%"}
{"dose": "2 mg twice daily", "subjects with oropharyngeal pain": "11.1%"}
{"dose": "12 mg once daily", "subjects with oropharyngeal pain": "0%"}
{"data": "Further values, each from its own experiment"}
{"Molecule": "maraviroc", "system": "white CYP3A5 poor metabolizers, plasma", "conditions": "300 mg twice daily", "quantity": "AUC(0-12h)", "value": "2950 ng·h/mL"}
{"Molecule": "chicoric acid", "assay": "UPLC", "system": "broiler chicken, plasma", "conditions": "oral gavage, 20 mg/kg", "quantity": "Tmax", "value": "30 min"}
{"Molecule": "semaglutide", "assay": "refers to: resolved with sequelae", "system": "human, safety analysis set", "conditions": "concentration not given, 32 weeks, run-in", "quantity": "participants with adverse events", "value": "0%"}
{"note": "Excerpt of the above (further values, each from its own experiment):"}
{"Molecule": "chicoric acid", "assay": "UPLC", "system": "broiler chicken, plasma", "conditions": "oral gavage, 20 mg/kg", "quantity": "Tmax", "value": "30 min"}
